Measured values collected from several papers.
Parts stem from different laboratories: compare values within a part only. Several values in a cell are separate wells, animals, samples, runs or records.
Sequence of UniProt Q13464 (whole entry, looked up): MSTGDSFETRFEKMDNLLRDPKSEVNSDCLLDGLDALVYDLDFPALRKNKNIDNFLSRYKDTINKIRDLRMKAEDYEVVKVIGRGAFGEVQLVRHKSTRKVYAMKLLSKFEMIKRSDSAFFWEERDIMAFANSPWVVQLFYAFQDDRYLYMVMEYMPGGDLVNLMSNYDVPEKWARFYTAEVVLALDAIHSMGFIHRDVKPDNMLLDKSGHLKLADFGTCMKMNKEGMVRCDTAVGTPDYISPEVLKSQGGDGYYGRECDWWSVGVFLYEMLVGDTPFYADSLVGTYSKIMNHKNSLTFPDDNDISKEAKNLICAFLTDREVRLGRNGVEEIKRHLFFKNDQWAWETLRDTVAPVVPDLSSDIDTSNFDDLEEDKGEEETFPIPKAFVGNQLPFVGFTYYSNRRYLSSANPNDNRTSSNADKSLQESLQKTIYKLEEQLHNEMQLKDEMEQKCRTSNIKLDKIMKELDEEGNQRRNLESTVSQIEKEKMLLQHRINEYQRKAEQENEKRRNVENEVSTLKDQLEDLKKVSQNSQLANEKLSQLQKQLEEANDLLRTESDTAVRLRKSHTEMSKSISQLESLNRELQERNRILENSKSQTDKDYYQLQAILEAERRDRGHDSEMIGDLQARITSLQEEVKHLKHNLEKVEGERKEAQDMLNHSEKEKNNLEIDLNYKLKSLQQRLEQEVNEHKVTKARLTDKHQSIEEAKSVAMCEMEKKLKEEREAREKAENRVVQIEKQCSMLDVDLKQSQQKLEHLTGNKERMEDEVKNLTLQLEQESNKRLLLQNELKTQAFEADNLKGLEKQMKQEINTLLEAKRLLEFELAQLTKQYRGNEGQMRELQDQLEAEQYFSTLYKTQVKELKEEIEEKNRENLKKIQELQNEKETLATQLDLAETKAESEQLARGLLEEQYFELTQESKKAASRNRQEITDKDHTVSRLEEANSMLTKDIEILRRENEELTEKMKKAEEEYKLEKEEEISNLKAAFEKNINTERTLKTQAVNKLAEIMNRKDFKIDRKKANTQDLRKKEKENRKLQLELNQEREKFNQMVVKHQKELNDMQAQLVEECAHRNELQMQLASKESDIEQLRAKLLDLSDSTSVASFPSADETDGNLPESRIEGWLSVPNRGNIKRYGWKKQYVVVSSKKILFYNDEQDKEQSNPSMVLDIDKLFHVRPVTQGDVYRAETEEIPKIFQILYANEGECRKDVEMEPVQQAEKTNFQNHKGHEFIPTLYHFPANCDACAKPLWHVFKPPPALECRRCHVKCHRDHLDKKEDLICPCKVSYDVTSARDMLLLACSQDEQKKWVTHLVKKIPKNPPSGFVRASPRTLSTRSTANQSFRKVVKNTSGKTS
Sequence of UniProt Q8N4C8 (whole entry, looked up): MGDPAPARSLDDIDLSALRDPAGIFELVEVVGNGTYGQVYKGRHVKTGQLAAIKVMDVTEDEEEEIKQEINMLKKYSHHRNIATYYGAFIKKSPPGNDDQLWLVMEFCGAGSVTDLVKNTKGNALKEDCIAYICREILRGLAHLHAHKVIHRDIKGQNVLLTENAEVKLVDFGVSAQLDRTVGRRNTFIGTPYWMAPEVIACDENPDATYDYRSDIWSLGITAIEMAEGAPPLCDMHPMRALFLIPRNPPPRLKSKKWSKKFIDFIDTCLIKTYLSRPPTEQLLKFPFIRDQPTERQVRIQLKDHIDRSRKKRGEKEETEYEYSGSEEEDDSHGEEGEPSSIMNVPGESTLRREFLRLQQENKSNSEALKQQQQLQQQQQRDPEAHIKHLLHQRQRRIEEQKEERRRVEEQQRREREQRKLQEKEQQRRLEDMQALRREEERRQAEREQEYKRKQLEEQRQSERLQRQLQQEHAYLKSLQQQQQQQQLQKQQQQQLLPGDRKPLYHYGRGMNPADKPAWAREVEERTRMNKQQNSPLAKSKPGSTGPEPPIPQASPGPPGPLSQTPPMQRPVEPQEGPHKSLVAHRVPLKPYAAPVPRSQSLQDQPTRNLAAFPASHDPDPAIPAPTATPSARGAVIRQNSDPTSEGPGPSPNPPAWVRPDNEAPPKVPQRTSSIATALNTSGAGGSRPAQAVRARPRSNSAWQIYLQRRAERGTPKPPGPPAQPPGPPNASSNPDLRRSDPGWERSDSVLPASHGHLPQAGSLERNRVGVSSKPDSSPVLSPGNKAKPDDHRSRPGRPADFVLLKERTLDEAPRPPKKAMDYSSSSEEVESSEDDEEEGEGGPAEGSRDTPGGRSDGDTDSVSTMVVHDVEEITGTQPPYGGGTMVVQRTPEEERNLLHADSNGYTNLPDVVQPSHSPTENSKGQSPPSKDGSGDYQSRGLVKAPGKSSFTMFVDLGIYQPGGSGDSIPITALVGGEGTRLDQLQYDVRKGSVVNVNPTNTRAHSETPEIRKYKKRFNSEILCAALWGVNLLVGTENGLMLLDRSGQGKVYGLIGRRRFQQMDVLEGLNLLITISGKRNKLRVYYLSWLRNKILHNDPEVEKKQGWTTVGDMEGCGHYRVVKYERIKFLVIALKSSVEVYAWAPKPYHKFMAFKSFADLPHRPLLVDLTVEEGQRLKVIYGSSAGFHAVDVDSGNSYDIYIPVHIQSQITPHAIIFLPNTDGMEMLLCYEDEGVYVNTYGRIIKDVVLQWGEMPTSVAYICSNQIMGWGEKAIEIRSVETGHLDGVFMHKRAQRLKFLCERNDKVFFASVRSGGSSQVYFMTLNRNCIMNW
Sequence of UniProt P08581 (whole entry, looked up): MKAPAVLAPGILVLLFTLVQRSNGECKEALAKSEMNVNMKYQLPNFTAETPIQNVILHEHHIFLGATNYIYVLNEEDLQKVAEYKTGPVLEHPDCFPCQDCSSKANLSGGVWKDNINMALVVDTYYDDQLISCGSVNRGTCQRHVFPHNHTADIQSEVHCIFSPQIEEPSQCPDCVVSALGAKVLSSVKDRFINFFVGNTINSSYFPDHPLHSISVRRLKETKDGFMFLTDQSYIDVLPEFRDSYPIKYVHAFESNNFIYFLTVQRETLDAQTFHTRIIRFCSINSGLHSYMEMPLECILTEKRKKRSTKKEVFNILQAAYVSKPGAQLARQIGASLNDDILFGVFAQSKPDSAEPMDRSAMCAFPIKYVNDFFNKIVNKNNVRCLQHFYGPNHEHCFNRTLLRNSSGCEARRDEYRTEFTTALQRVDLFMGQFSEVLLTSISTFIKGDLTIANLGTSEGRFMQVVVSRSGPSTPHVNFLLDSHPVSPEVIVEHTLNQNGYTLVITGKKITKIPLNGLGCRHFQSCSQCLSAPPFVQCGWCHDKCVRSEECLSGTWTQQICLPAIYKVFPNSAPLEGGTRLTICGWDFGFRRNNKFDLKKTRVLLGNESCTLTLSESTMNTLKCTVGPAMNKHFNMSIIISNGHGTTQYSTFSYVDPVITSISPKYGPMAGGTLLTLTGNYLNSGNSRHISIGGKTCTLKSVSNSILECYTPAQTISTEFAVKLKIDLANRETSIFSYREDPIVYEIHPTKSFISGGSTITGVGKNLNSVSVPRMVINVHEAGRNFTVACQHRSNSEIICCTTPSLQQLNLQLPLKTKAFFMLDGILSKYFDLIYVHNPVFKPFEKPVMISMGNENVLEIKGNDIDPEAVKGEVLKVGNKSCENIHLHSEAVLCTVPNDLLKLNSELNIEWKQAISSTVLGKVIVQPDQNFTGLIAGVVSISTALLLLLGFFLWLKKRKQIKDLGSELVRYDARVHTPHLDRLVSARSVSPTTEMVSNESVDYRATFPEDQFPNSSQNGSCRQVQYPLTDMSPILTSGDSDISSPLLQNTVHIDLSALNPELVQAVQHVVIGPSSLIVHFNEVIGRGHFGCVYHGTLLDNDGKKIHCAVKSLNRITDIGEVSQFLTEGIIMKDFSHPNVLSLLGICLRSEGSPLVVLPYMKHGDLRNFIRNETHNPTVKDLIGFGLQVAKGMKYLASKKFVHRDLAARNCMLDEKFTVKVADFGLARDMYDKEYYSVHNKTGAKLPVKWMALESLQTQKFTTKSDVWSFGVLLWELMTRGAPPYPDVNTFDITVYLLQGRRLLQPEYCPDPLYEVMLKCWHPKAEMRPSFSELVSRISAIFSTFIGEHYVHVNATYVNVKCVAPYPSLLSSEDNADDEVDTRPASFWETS
Sequence of UniProt Q6P2M8 (whole entry, looked up): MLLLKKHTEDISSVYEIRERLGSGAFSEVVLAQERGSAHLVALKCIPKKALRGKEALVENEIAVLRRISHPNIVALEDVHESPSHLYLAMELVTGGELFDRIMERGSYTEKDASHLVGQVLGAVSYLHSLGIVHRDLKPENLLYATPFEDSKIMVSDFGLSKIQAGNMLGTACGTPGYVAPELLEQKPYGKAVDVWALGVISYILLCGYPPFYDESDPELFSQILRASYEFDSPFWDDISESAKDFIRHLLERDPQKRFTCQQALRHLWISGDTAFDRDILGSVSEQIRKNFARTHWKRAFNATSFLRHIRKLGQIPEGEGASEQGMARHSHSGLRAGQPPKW

Set 1 — Structure (SMILES): O=C1Nc2ccccc2/C1=C\c1c(Cl)[nH]c2ccccc12; observed: enzyme activity; action: inhibitor; concentration: 0.5 µM; relative to: control
target | remaining activity
PAK3 (Homo sapiens, UniProt O75914) | 98.8%
NEK3 (Homo sapiens, UniProt P51956) | 91.2%
CAMK4 (Homo sapiens, UniProt Q16566) | 102%
MET (Homo sapiens, UniProt P08581) | 109%
MINK1 (Homo sapiens, UniProt Q8N4C8) | 94.9%
PNCK (Homo sapiens, UniProt Q6P2M8) | 92.9%
TXK (Homo sapiens, UniProt P42681) | 99.6%
ROCK1 (Homo sapiens, UniProt Q13464) | 101%
MAP2K1 (Homo sapiens, UniProt Q02750) | 84.8%
MARK4 (Homo sapiens, UniProt Q96L34) | 106%
CDC42BPB (Homo sapiens, UniProt Q9Y5S2) | 102%
RPS6KA4 (Homo sapiens, UniProt O75676) | 93.6%
DDR2 (Homo sapiens, UniProt Q16832) | 92.7%
MAPK14 (Homo sapiens, UniProt Q16539) | 101%

Set 2 — observed: acetyl-histone H4 peptide binding; technique: AlphaScreen displacement; concentration: 50 µM
Target: Bromodomain-containing protein 4, BD1 (BRD4, Homo sapiens, UniProt O60885)
SMILES | inhibition [%]
N#CC(=C1CCCC1)c1nc2ccccc2s1 | 4.1
O=C1NC(=O)C(=Cc2ccccc2OCc2ccccc2Cl)S1 | 12.9
O=C(CSc1ccc2nnc(-c3ccc(Cl)cc3)n2n1)Nc1cccc(F)c1 | 9.2
Nc1nc2ccc([N+](=O)[O-])cc2c(=O)[nH]1 | 11.6
O=C(CSc1ccc2nnc(-c3cccc(F)c3)n2n1)NCC1CCCO1 (centres unmarked) | 9.9
CCCN(Cc1ccccc1)C(=S)Nc1ccc2nc[nH]c(=O)c2c1 | 8.45
CCN(CC)Cc1c(-c2ccc(OC)cc2)[nH]c2ncccc12 | 10.8
Cc1ccc(NS(=O)(=O)c2cc(C(=O)O)c(Cl)cc2Cl)c(O)c1 | 18.6
Nc1nc(Nc2ccccc2)sc1C(=O)c1ccc(F)cc1 | 56
NC(=O)Nc1sc(-c2ccccc2)cc1C(N)=O | 23.9
Cc1ccc(NC(=O)c2snc3c(=O)[nH]cnc23)cc1 | 32.2
COc1ccc(Nc2nc(N)nc3[nH]cnc23)cc1OC | 21.8
CCOC(=O)c1cnc2oc3ccc(O)cc3c2c1-c1ccccc1 | 12.6
O=C(O)CCSc1nnc2c(n1)[nH]c1ccccc12 | -3.15
Nc1n[nH]c2nc3ccccc3nc12 | 11.6
Cc1cccc(-c2nc(C(C)(C)C)[nH]c2-c2ccc3c(c2)OCO3)n1 | 36.6
O=C(Nc1ccc(N2CCOCC2)cc1)Nc1ccc(Cl)c(Cl)c1 | 38.4
Ic1cccc(CSc2nnc(-c3ccncc3)o2)c1 | 2.25
CCOC(=O)CNC(=O)CSc1ccc2nnc(-c3ccc(Cl)cc3)n2n1 | 7.65

Set 3 — observed: enzyme activity; action: inhibitor; concentration: 10 µM
Target: Calcium/calmodulin-dependent protein kinase type II subunit alpha (CAMK2A, Homo sapiens, UniProt Q9UQM7)
Sequence of UniProt Q9UQM7 (whole entry, looked up): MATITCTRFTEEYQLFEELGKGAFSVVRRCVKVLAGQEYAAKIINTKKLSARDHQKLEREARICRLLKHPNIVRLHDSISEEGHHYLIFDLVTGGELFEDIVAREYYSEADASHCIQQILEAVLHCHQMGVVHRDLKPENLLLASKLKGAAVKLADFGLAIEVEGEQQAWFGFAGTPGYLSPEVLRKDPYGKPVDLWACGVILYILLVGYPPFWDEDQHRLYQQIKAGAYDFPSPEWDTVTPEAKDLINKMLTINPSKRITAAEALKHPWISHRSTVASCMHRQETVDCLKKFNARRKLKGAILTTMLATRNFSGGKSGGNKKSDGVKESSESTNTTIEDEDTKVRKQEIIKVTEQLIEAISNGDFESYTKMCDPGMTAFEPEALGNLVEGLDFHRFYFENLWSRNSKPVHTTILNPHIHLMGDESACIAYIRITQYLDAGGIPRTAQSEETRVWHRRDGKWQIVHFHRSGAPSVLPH
SMILES | inhibition
C[C@@]12C[C@@]3(O)O[C@@H](O1)[C@]1(COC(=O)c4ccccc4)[C@H]3C[C@@]12O[C@@H]1O[C@H](CO)[C@@H](O)[C@H](O)[C@H]1O | -6%
O=C(O)c1c(O)cccc1O | 4%
O=C1C[C@@](O)(C(=O)O)[C@@H](C(=O)O)O1 | 4%
Cn1nnc(-c2ccc(-c3ccc(N4C[C@H](COP(=O)(O)O)OC4=O)cc3F)cn2)n1 | -1%
COc1cc(/C=C/C(=O)O[C@H]2[C@H](O)[C@@H](CO)O[C@@]2(CO)O[C@H]2O[C@H](COC(=O)c3ccc(O)cc3)[C@@H](O)[C@H](O)[C@H]2O)cc(OC)c1O | -9%
CCCCOc1ccc(CC(=O)NO)cc1 | -7%
CC1(C)[C@@H](O[C@H]2O[C@H](C(=O)O)[C@@H](O)[C@H](O)[C@H]2O[C@@H]2O[C@H](C(=O)O)[C@@H](O)[C@H](O)[C@H]2O)CC[C@]2(C)[C@H]3C(=O)C=C4[C@@H]5C[C@@](C)(C(=O)O)CC[C@]5(C)CC[C@@]4(C)[C@]3(C)CC[C@@H]12 | -0.05% and -0.13% and -0.02%
COc1ccc2c(c1OC)O[C@H]1c3ccc(O)cc3OC[C@@H]21 | -13%
O=C(CCc1ccc(O)c(O)c1)NCCCNCCCCNCCCNC(=O)CCc1ccc(O)c(O)c1 | -6%
COc1cc2c(cc1OC)[C@@H](Cc1cc(OC)c(OC)c(OC)c1)[N+](C)(CCCOC(=O)CC/C=C/CCC(=O)OCCC[N+]1(C)CCc3cc(OC)c(OC)cc3[C@H]1Cc1cc(OC)c(OC)c(OC)c1)CC2 (some centres unmarked) | 11%

Set 4 — observed: cell-free assay; technique: competition with immobilised ligand; concentration: 1 µM
SMILES: Cc1c(NC(=O)c2cc(C(N)=O)nc3cc(F)ccc23)c(C(F)(F)F)nn1Cc1ccc(C(C)(C)C)cc1
target | remaining binding [%]
TNK1 (Homo sapiens, UniProt Q13470) | 100
FGFR2 (Homo sapiens, UniProt P21802) | 100
KIT (Homo sapiens, UniProt P10721) | 99
Tyrosine-protein kinase ABL1, phosphorylated (ABL1, Homo sapiens, UniProt P00519, Q252H) | 100
SNRK (Homo sapiens, UniProt Q9NRH2) | 93
CIT (Homo sapiens, UniProt O14578) | 100
RIPK1 (Homo sapiens, UniProt Q13546) | 100
PAK2 (Homo sapiens, UniProt Q13177) | 85
ROCK1 (Homo sapiens, UniProt Q13464) | 100
Ribosomal protein S6 kinase alpha-2, C-terminal kinase domain (RPS6KA2, Homo sapiens, UniProt Q15349) | 100
EGFR (Homo sapiens, UniProt P00533, del752-759) | 75
MAP2K7 (Homo sapiens, UniProt O14733) | 100
MYLK (Homo sapiens, UniProt Q15746) | 97

Repeated from above (set 4):
target | remaining binding [%]
Ribosomal protein S6 kinase alpha-2, C-terminal kinase domain (RPS6KA2, Homo sapiens, UniProt Q15349) | 100
EGFR (Homo sapiens, UniProt P00533, del752-759) | 75
MAP2K7 (Homo sapiens, UniProt O14733) | 100
MYLK (Homo sapiens, UniProt Q15746) | 97
